{"data": "Assay results from different studies", "note": "A part holds a random share of what one study measured. “And” joins repeats or separate records; there may be more than shown.", "UniProt P42336, sequence (whole entry, unmodified, looked up)": "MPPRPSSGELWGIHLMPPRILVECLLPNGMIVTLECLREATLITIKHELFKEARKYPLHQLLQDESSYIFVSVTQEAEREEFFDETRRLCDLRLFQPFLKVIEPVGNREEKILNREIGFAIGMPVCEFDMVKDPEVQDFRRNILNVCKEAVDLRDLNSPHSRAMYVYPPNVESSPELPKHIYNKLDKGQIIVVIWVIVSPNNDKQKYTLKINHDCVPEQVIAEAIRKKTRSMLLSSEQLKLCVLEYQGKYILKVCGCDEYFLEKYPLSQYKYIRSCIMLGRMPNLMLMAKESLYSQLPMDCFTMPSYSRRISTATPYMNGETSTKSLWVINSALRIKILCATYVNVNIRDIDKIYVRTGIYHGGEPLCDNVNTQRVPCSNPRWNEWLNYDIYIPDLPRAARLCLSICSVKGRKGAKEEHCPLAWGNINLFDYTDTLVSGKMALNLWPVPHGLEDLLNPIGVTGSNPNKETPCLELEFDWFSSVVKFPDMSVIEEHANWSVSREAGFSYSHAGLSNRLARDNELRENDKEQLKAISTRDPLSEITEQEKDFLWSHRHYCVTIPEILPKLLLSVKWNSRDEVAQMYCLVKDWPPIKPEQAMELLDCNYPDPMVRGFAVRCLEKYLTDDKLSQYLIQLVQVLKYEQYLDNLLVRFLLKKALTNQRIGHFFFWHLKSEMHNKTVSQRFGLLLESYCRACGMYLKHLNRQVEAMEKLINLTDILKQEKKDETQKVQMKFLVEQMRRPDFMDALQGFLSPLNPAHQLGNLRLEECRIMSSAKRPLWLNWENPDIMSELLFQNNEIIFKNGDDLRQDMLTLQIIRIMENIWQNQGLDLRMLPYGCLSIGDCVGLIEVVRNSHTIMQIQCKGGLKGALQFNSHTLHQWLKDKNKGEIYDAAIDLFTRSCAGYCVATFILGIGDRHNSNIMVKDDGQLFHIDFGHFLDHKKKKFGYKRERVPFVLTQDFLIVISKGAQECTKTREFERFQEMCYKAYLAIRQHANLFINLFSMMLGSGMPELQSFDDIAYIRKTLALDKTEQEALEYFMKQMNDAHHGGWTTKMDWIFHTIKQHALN", "UniProt Q13164, sequence (whole entry, looked up)": "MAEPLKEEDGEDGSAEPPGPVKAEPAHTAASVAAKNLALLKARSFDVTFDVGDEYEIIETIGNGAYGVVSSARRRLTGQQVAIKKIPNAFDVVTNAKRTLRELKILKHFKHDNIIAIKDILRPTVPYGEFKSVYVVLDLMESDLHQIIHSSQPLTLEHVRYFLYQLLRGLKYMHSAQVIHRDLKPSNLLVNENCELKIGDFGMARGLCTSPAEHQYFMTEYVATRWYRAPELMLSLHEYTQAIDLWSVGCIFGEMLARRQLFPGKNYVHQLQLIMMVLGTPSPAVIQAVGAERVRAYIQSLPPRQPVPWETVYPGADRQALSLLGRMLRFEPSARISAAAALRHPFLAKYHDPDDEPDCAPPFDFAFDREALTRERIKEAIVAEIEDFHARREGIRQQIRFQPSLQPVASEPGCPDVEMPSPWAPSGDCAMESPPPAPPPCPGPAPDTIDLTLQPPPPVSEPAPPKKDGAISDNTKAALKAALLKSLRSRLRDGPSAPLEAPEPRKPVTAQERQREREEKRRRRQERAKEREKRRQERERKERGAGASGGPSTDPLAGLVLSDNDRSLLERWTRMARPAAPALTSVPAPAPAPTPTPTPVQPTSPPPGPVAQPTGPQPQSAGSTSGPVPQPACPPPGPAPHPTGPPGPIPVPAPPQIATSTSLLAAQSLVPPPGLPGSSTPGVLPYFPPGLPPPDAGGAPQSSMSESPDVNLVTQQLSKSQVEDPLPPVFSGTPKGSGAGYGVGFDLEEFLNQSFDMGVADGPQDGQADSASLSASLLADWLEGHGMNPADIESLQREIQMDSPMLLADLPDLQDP", "UniProt Q96D53, sequence (whole entry, looked up)": "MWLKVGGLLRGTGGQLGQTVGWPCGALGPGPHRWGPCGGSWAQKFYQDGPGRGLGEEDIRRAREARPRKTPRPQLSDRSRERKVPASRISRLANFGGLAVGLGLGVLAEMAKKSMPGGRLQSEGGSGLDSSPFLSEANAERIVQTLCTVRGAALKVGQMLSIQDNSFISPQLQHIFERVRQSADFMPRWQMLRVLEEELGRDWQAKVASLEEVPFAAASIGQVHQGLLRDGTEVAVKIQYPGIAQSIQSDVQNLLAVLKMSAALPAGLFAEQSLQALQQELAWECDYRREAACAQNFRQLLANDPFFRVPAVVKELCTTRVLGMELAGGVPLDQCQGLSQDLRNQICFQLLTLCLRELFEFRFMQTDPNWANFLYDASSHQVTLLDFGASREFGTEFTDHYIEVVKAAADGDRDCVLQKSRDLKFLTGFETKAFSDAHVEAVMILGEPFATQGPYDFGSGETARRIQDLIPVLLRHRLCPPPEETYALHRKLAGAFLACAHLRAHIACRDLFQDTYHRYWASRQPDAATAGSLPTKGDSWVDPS", "UniProt Q9BWU1, sequence (whole entry, looked up)": "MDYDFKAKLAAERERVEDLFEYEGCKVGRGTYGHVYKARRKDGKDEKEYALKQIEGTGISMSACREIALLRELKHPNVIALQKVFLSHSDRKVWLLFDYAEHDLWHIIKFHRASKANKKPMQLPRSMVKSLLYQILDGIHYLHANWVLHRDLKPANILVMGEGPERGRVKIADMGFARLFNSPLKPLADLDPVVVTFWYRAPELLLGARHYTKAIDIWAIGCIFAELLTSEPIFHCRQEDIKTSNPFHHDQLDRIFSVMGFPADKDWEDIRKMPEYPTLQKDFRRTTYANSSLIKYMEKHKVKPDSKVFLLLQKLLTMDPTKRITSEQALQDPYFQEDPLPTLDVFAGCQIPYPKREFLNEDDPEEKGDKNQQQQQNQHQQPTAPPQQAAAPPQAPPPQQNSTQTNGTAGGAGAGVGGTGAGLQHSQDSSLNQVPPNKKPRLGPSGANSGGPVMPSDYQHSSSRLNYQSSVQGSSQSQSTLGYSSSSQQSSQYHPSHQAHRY", "UniProt P49840, sequence (whole entry, looked up)": "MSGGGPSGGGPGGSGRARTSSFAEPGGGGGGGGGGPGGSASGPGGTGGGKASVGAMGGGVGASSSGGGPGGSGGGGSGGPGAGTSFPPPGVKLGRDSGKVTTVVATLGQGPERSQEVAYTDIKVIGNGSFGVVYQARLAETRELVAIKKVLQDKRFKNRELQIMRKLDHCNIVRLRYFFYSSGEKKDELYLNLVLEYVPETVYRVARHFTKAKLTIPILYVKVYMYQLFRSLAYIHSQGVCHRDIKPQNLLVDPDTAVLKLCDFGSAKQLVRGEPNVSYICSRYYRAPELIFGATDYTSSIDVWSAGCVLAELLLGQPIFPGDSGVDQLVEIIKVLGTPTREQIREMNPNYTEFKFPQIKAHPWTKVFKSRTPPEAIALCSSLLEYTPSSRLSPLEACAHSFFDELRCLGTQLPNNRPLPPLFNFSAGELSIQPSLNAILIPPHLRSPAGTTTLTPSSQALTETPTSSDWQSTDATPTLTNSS", "UniProt Q16584, sequence (whole entry, looked up)": "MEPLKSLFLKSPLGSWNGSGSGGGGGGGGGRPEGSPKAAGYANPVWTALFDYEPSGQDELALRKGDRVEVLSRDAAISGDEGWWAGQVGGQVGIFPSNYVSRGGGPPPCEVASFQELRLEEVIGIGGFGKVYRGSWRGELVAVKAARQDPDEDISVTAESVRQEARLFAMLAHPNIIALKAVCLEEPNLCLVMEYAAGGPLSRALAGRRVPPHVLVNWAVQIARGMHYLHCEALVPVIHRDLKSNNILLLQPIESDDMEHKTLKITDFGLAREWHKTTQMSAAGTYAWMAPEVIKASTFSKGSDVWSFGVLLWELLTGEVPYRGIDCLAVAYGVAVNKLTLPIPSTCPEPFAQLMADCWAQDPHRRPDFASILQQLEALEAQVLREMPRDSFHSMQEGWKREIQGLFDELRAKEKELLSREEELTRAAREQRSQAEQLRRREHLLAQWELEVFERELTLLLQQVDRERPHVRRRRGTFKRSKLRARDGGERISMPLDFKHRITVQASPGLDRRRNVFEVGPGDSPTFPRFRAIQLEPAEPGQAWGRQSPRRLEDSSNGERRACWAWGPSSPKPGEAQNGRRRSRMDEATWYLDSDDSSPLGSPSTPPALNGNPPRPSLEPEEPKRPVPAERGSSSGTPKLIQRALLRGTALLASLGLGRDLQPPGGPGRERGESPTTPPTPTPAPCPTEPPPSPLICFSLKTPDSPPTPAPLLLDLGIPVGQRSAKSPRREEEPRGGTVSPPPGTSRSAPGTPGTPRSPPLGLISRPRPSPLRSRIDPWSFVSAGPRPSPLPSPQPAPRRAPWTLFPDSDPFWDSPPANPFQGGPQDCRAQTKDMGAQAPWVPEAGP", "UniProt P23443, sequence (whole entry, looked up)": "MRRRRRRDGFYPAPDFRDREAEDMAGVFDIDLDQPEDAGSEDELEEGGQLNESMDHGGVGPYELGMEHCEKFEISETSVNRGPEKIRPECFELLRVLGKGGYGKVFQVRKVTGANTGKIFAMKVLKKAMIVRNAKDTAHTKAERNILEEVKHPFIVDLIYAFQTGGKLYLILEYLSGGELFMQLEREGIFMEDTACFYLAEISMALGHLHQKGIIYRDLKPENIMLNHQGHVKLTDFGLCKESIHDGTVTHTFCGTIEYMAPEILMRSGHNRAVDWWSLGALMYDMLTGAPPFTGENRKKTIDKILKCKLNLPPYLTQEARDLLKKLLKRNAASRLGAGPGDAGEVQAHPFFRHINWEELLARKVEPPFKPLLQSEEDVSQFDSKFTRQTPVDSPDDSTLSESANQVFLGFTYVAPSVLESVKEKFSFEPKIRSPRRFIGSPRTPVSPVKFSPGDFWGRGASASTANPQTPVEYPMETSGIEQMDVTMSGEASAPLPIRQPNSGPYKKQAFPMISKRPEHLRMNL"}
{"data": "Sample 1", "Compound": "COc1cc(-c2nc3ccc(C(=O)NCCCN(C)C)cc3n2C2CCC2)cc(OC)c1OC", "tested at": "1 µM"}
{"target": "PIK3CA (Homo sapiens, UniProt P42336, M1043I)", "observed": "binding", "method": "competition with immobilised ligand", "remaining binding [%]": 74}
{"target": "GSK3A (Homo sapiens, UniProt P49840)", "observed": "binding", "method": "competition with immobilised ligand", "remaining binding [%]": 97}
{"target": "PIK3CA (Homo sapiens, UniProt P42336, E542K)", "observed": "binding", "method": "competition with immobilised ligand", "remaining binding [%]": 99}
{"target": "COQ8B (Homo sapiens, UniProt Q96D53)", "observed": "binding", "method": "competition with immobilised ligand", "remaining binding [%]": 98}
{"target": "RPS6KB1 (Homo sapiens, UniProt P23443)", "observed": "binding", "method": "competition with immobilised ligand", "remaining binding [%]": 47}
{"target": "MAP3K11 (Homo sapiens, UniProt Q16584)", "observed": "binding", "method": "competition with immobilised ligand", "remaining binding [%]": 100}
{"target": "MAPK7 (Homo sapiens, UniProt Q13164)", "observed": "binding", "method": "competition with immobilised ligand", "remaining binding [%]": 99}
{"target": "CDK19 (Homo sapiens, UniProt Q9BWU1)", "method": "KINOMEscan", "relative to": "control", "remaining binding [%]": 76}
{"data": "Sample 2", "SMILES": "CCCCC[C@@H]1CC(=O)N[C@@H](C(C)C)C(=O)N[C@H](CCCNC(=N)N)C(=O)N[C@@H](C(C)C)C(=O)NCC(=O)N2CCC[C@H]2C(=O)N[C@@H](CC(C)C)C(=O)N[C@H](CCCNC(=N)N)C(=O)N[C@@H](CCC(=O)O)C(=O)N[C@H](Cc2ccc(O)cc2)C(=O)N[C@H](Cc2c[nH]c3ccccc23)C(=O)NCCCC(=O)O1", "organism": "Staphylococcus aureus", "strain": "USA300"}
{"together with": "menaquinone 0.5 µg/mL", "MIC": "4 µg/mL"}
{"together with": "ubiquinone 16 µg/mL", "MIC": "1 µg/mL"}
{"together with": "menaquinone 4 µg/mL", "MIC": "16 µg/mL"}
{"data": "Sample 3", "SMILES": "Cn1cc(-c2cccc(CN3CCC4(CC3)COc3c4ccc4c3CN([C@H]3CCC(=O)NC3=O)C4=O)c2)cn1"}
{"matrix": "rat liver microsomes", "half-life [h]": "> 2"}
{"matrix": "human plasma", "half-life [h]": 8.25}
{"matrix": "mouse plasma", "half-life [h]": 124}
{"matrix": "monkey plasma", "half-life [h]": 24.8}
{"species": "cynomolgus monkey", "route": "oral", "dose": "3.02 mg/kg", "half-life [h]": 10}
{"observed": "metabolic stability", "species": "monkey", "matrix": "liver microsomes", "half-life [h]": 0.607}
{"data": "Further values, each from its own experiment"}
{"Compound": "Cc1c(NC(=O)c2cccn(-c3ccc(F)cc3)c2=O)ccc(Oc2ccnc(NC(=O)C3CC3)c2)c1C", "cell line": "L929", "method": "CCK-8", "tested at": "50 µM", "endpoint": "viability", "value": "70.4% and 72.5% and 71.4% and 70.9% and 70.3%"}
